Experimental data of several laboratories.
Organism: Escherichia coli

For `COc1c(N2C[C@@H]3CCCN[C@@H]3C2)c(F)cc2c(=O)c(C(=O)O)cn(C3CC3)c12`, the MIC was 73 µM (NR 17661, fluoroquinolone-resistant).
`Cc1cc(C(=O)Nc2ccc(C(=O)N[C@@H](CC(N)=O)C(=O)Nc3ccc(C(=O)Nc4ccc(C(=O)Nc5ccc(C(=O)O)cc5)c(O)c4OC(C)C)cc3)cc2)ccc1C#N` gave an MIC of 0.03 µg/mL (K12 ΔtolC).
`CC(C)CC1NC(=O)C(C(=O)NC(C(=O)NC2C(=O)N3C2SC(C)(C)C3C(=O)O)c2ccccc2)=C1O` (centres unmarked) has an MIC of > 200 µg/mL (broth microdilution; isolate IU 356 A, KPC-3, VIM-1, TEM; no clavulanic acid).
The MIC of `CC[C@H](C)[C@H](NC(=O)[C@H](CC(C)C)NC(=O)[C@H](CCCNC(=N)N)NC(=O)[C@H](Cc1c[nH]c2ccccc12)NC(=O)[C@H](CCCNC(=N)N)NC(=O)[C@H](CCCCN)NC(=O)[C@H](CCCNC(=N)N)NC(=O)[C@H](Cc1c[nH]c2ccccc12)NC(=O)[C@H](Cc1c[nH]cn1)NC(=O)[C@@H](NC(=O)CNC(=O)CNC(=O)[C@H](CCSC)NC(=O)[C@H](C)NC(=O)[C@@H](N)CC(C)C)C(C)C)C(=O)N[C@@H](C)C(=O)N[C@@H](CC(N)=O)C(=O)N[C@@H](CCSC)C(=O)N[C@@H](CCCNC(=N)N)C(=O)N[C@H](C(=O)N[C@@H](Cc1c[nH]c2ccccc12)C(=O)N[C@@H](Cc1c[nH]cn1)C(=O)N[C@@H](CCCNC(=N)N)C(=O)N1CCC[C@H]1C(=O)N[C@@H](CC(N)=O)C(=O)N[C@@H](Cc1ccccc1)C(=O)N[C@@H](CCCNC(=N)N)C(=O)N[C@@H](CC(=O)O)C(=O)N[C@@H](Cc1c[nH]cn1)C(=O)O)[C@@H](C)CC` is reported as 2.37 µM (broth microdilution; K88, Mueller-Hinton broth; 37 °C).
The MIC of `CC[C@H](C)[C@H](NC(=O)CN)C(=O)N[C@@H](C)C(=O)N[C@@H](CC(=O)O)C(=O)N[C@@H](C)C(=O)N[C@H](C(=O)N[C@@H](CCCCN)C(=O)N[C@@H](CCCCN)C(=O)N[C@H](C(=O)N[C@@H](C)C(=O)N[C@@H](CCCCN)C(=O)N[C@@H](C)C(=O)N[C@@H](CC(C)C)C(=O)NCC(N)=O)[C@@H](C)CC)[C@@H](C)CC` is reported as 64 µg/mL (ATCC 25922, Mueller-Hinton broth; 12 h, 37 °C).
For `CC[C@H](C)[C@H](NC(=O)CNC(=O)[C@H](CC(=O)O)NC(=O)[C@H](C)NC(=O)[C@@H](NC(=O)[C@H](CC(N)=O)NC(=O)[C@H](CCCNC(=N)N)NC(=O)CNC(=O)[C@@H](NC(=O)[C@H](CCCCN)NC(=O)[C@H](CCC(=O)O)NC(=O)[C@@H](NC(=O)[C@H](CCCCN)NC(=O)[C@H](CCCCN)NC(=O)[C@H](Cc1ccccc1)NC(=O)[C@@H](NC(=O)[C@H](CCCCN)NC(=O)[C@H](Cc1c[nH]c2ccccc12)NC(=O)[C@@H](N)CCCNC(=N)N)[C@@H](C)CC)[C@@H](C)CC)C(C)C)C(C)C)C(=O)N[C@H](C(=O)N[C@@H](CCCCN)C(=O)N[C@@H](C)C(=O)NCC(=O)N1CCC[C@H]1C(=O)N[C@@H](C)C(=O)N[C@H](C(=O)N[C@@H](C)C(=O)N[C@H](C(=O)N[C@H](C(=O)NCC(=O)N[C@@H](CCC(N)=O)C(=O)N[C@@H](C)C(=O)N[C@@H](C)C(=O)N[C@H](C(=O)N[C@H](C(=O)N[C@H](C(=O)N[C@@H](CCCCN)C(N)=O)C(C)C)C(C)C)[C@@H](C)O)C(C)C)C(C)C)C(C)C)[C@@H](C)CC`, the MIC was 2 µM (KCTC 1682, Mueller-Hinton broth; 16 h, 37 °C; growth inhibition over 99%).
For `CC[C@H](C)[C@H](NC(=O)[C@H](Cc1ccc(O)cc1)NC(=O)[C@@H](NC(=O)[C@@H]1CCCN1C(=O)[C@H](CCCNC(=N)N)NC(=O)[C@H](CC(N)=O)NC(=O)[C@H](CC(N)=O)NC(=O)CN)C(C)C)C(=O)N1CCC[C@H]1C(=O)N[C@@H](CCC(N)=O)C(=O)N1CCC[C@H]1C(=O)N[C@@H](CCCNC(=N)N)C(=O)N1CCC[C@H]1C(=O)N1CCC[C@H]1C(=O)N[C@@H](Cc1c[nH]cn1)C(=O)N1CCC[C@H]1C(=O)N[C@@H](CCCNC(=N)N)C(=O)N[C@@H](CC(C)C)C(=O)O`, the MIC was 9.4 µM (broth dilution; K12 BW25113).
`CC1(C)SC2C(NC(=O)C(NC(=O)C3=C(O)C4CCCN4C3=O)c3ccccc3)C(=O)N2C1C(=O)O` (centres unmarked) has an MIC of > 200 µg/mL (broth microdilution; isolate IU 356 A, KPC-3, VIM-1, TEM; no clavulanic acid).
`C[C@@H](O)[C@H]1C(=O)N2C(C(=O)O)=C(S[C@@H]3CN[C@H](C(=O)N(C)C)C3)[C@H](C)[C@H]12` gave an MIC of < 0.09 µg/mL (BL21(DE3) carrying Ftu-1).
`NC(=O)[C@@H]1CC[C@@H]2CN1C(=O)N2OS(=O)(=O)O` gave an MIC of 16 µg/mL (broth microdilution; 13-1, NDM-positive; compound alone).
For `O=C(O)c1cccc(C(=O)O)n1`, the MIC was ≤ 0.0625 µg/mL (ATCC 25922, no carbapenemase; 32 µg/mL, MIC of meropenem, together with: meropenem).
With `CC[C@H](C)[C@H](N)C(=O)N[C@@H](CC(C)C)C(=O)NCC(=O)N[C@H](CCCCN)C(=O)N[C@H](C(=O)N[C@@H](Cc1c[nH]c2ccccc12)C(=O)N[C@@H](CCCCN)C(=O)NCC(=O)N[C@H](C(=O)N[C@@H](CCCCN)C(=O)N[C@@H](CC(=O)O)C(=O)N[C@H](C(=O)N[C@@H](CC(C)C)C(N)=O)[C@@H](C)CC)[C@@H](C)CC)[C@@H](C)CC` the MIC was 25 µM (broth microdilution; ATCC 25922, Mueller-Hinton broth; 16 h, 37 °C).
With `CC[C@H](C)[C@H](NC(=O)[C@H](C)NC(=O)[C@H](CCCCN)NC(=O)[C@H](CCCNC(=N)N)NC(=O)[C@H](CCCCN)NC(=O)[C@H](CCCNC(=N)N)NC(=O)[C@H](CCCCN)NC(=O)[C@@H](N)CCCNC(=N)N)C(=O)N[C@@H](CO)C(=O)NCC(=O)N[C@@H](CO)C(=O)N[C@@H](CC(C)C)C(=O)N[C@H](C(=O)N[C@H](C(=O)N[C@@H](CC(C)C)C(=O)N[C@@H](Cc1ccccc1)C(=O)NCC(=O)N[C@@H](Cc1ccc(O)cc1)C(N)=O)[C@@H](C)O)C(C)C` the MIC was 8 µM (broth microdilution; ATCC 25922; highest value reported).
`CC(C)C[C@@H](NC(=O)CNC(=O)[C@@H](CCCCN)NC(=O)[C@@H](CC(C)C)NC(=O)[C@@H](CCCCN)NC(=O)[C@@H](CCCNC(=N)N)NC(=O)[C@@H](CC(C)C)NC(=O)[C@@H](CC(C)C)NC(=O)[C@@H](CCCNC(=N)N)NC(=O)[C@H](N)CCCNC(=N)N)C(=O)N[C@H](CCCCN)C(=O)N[C@H](CCCCN)C(=O)N[C@H](Cc1ccc(O)cc1)C(=O)N[C@H](CC(C)C)C(=O)N[C@H](Cc1ccc(O)cc1)C(=O)N[C@H](Cc1ccccc1)C(=O)N[C@H](CCCCN)C(=O)N[C@H](CC(C)C)C(=O)N[C@H](CCC(N)=O)C(=O)N[C@H](CC(C)C)C(=O)N[C@H](CC(C)C)C(=O)N[C@H](CCCCN)C(=O)N[C@H](CCCCN)C(N)=O` has an MIC of 16 µM (broth microdilution; KCTC 1682, Mueller-Hinton broth; together with: NH4Cl 6 µM).
`CC[C@H](C)[C@H](NC(=O)[C@H](CCCNC(=N)N)NC(=O)[C@H](CO)NC(=O)[C@H](Cc1ccc(O)cc1)NC(=O)[C@@H](NC(=O)[C@@H](NC(=O)[C@H](C)NC(=O)CN)C(C)C)[C@@H](C)O)C(=O)N[C@@H](CO)C(=O)NCC(=O)N[C@@H](CCC(N)=O)C(=O)N[C@@H](Cc1ccc(O)cc1)C(=O)O` has an MIC of > 512 µM (broth microdilution; ATCC 25922, Mueller-Hinton broth; 16 to 18 h, 37 °C).
The MIC of `CC[C@H](C)[C@H](NC(=O)CNC(=O)[C@H](CC(=O)O)NC(=O)[C@H](CCCNC(=N)N)NC(=O)[C@@H](NC(=O)[C@H](CC(N)=O)NC(=O)[C@H](CCCNC(=N)N)NC(=O)CNC(=O)[C@@H](NC(=O)[C@H](CCCCN)NC(=O)[C@H](CCC(=O)O)NC(=O)[C@@H](NC(=O)[C@H](CCCCN)NC(=O)[C@H](CCCCN)NC(=O)[C@H](Cc1ccccc1)NC(=O)[C@@H](NC(=O)[C@H](CCC(=O)O)NC(=O)[C@H](Cc1c[nH]c2ccccc12)NC(=O)[C@@H](N)CCCNC(=N)N)[C@@H](C)CC)[C@@H](C)CC)C(C)C)C(C)C)C(=O)N[C@H](C(=O)N[C@@H](CCCCN)C(=O)N[C@@H](C)C(=O)NCC(=O)N1CCC[C@H]1C(=O)N[C@@H](C)C(=O)N[C@H](C(=O)N[C@@H](C)C(=O)N[C@H](C(=O)N[C@H](C(=O)NCC(=O)N[C@@H](CCC(N)=O)C(=O)N[C@@H](C)C(=O)N[C@@H](C)C(=O)N[C@H](C(=O)N[C@H](C(=O)N[C@H](C(=O)N[C@@H](CCCCN)C(N)=O)C(C)C)C(C)C)[C@@H](C)O)C(C)C)C(C)C)C(C)C)[C@@H](C)CC` is reported as 16 µM (K1 ATCC 700973, Mueller-Hinton broth; 16 h, 37 °C; growth inhibition over 99%).
For `C[C@@H](O)[C@H]1C(=O)N2C(C(=O)O)=C(S[C@@H]3CN[C@H](C(=O)N(C)C)C3)[C@H](C)[C@H]12`, the MIC was 0.5 µg/mL (DH5α expressing KPC-137).
The MIC of `CCCCCCC/C=C/C(=O)N1C(=O)/C(=C(/C)O)C(=O)C1CCC(=O)O` (centres unmarked) is reported as 12.5 µg/mL (K12 ΔtolC).
For `CC(C)Oc1c(NC(=O)c2ccc(NC(=O)[C@H](CC(N)=O)NC(=O)c3ccc(NC(=O)c4ccc(C#N)cc4)cc3)cc2)ccc(C(=O)N/N=C/c2ccc(C(=O)O)s2)c1O`, the MIC was 0.03 µg/mL (BW25113; 18 h, 37 °C, dark-adapted state).
`CC[C@H](C)[C@H](NC(=O)[C@H](CC(C)C)NC(=O)[C@H](CCCNC(=N)N)NC(=O)[C@@H](N)CCCNC(=N)N)C(=O)N[C@@H](CCCNC(=N)N)C(=O)N[C@@H](CCCCN)C(=O)N[C@@H](CC(C)C)C(=O)N[C@@H](CCCCN)C(=O)NCC(=O)N[C@@H](CC(C)C)C(=O)N[C@@H](CCCCN)C(=O)N[C@@H](CCCCN)C(=O)N[C@@H](Cc1ccc(O)cc1)C(=O)N[C@@H](CC(C)C)C(=O)N[C@@H](Cc1ccc(O)cc1)C(=O)N[C@@H](Cc1ccccc1)C(=O)N[C@@H](CCCCN)C(=O)N[C@@H](CC(C)C)C(=O)N[C@@H](CCC(N)=O)C(=O)N[C@@H](CC(C)C)C(=O)N[C@@H](CC(C)C)C(=O)N[C@@H](CCCCN)C(=O)N[C@@H](CCCCN)C(N)=O` gave an MIC of 16 µM (broth microdilution; KCTC 1682, Mueller-Hinton broth; together with: NH4Cl 6 µM).

A few entries again:
`CC[C@H](C)[C@H](NC(=O)[C@H](CCCNC(=N)N)NC(=O)[C@H](CO)NC(=O)[C@H](Cc1ccc(O)cc1)NC(=O)[C@@H](NC(=O)[C@@H](NC(=O)[C@H](C)NC(=O)CN)C(C)C)[C@@H](C)O)C(=O)N[C@@H](CO)C(=O)NCC(=O)N[C@@H](CCC(N)=O)C(=O)N[C@@H](Cc1ccc(O)cc1)C(=O)O` has an MIC of > 512 µM (broth microdilution; ATCC 25922, Mueller-Hinton broth; 16 to 18 h, 37 °C).
The MIC of `CC[C@H](C)[C@H](NC(=O)CNC(=O)[C@H](CC(=O)O)NC(=O)[C@H](CCCNC(=N)N)NC(=O)[C@@H](NC(=O)[C@H](CC(N)=O)NC(=O)[C@H](CCCNC(=N)N)NC(=O)CNC(=O)[C@@H](NC(=O)[C@H](CCCCN)NC(=O)[C@H](CCC(=O)O)NC(=O)[C@@H](NC(=O)[C@H](CCCCN)NC(=O)[C@H](CCCCN)NC(=O)[C@H](Cc1ccccc1)NC(=O)[C@@H](NC(=O)[C@H](CCC(=O)O)NC(=O)[C@H](Cc1c[nH]c2ccccc12)NC(=O)[C@@H](N)CCCNC(=N)N)[C@@H](C)CC)[C@@H](C)CC)C(C)C)C(C)C)C(=O)N[C@H](C(=O)N[C@@H](CCCCN)C(=O)N[C@@H](C)C(=O)NCC(=O)N1CCC[C@H]1C(=O)N[C@@H](C)C(=O)N[C@H](C(=O)N[C@@H](C)C(=O)N[C@H](C(=O)N[C@H](C(=O)NCC(=O)N[C@@H](CCC(N)=O)C(=O)N[C@@H](C)C(=O)N[C@@H](C)C(=O)N[C@H](C(=O)N[C@H](C(=O)N[C@H](C(=O)N[C@@H](CCCCN)C(N)=O)C(C)C)C(C)C)[C@@H](C)O)C(C)C)C(C)C)C(C)C)[C@@H](C)CC` is reported as 16 µM (K1 ATCC 700973, Mueller-Hinton broth; 16 h, 37 °C; growth inhibition over 99%).
For `C[C@@H](O)[C@H]1C(=O)N2C(C(=O)O)=C(S[C@@H]3CN[C@H](C(=O)N(C)C)C3)[C@H](C)[C@H]12`, the MIC was 0.5 µg/mL (DH5α expressing KPC-137).
